Measurements gathered from unrelated publications.
Numbered parts are unrelated; each lists some results of a single study.

Study 1 — method: protein-binding microarray; form: double-stranded DNA, one strand shown; matrix: in vitro; concentration: 250 nM; setting: 60-bp whole probe; together with: salmon DNA 0.4 mg/ml; baseline: random background probes; direction: higher = stronger binding; measurement: log fluorescence; shared flanks, not repeated: GCCTAGCAC … GTCTTGATTCGCTTGACGCTGCTG
Target: Interferon regulatory factor 5, full length, phosphomimetic (IRF5, Homo sapiens, UniProt Q13568-2, residues 1-514, K96S/S451D/S453D/S456D/S462D)
TTAGATTTCAGTCTCGATGAGTGCTAG: 2.36 z-score
TTAGGTATCGACACTGGGTTAGTGCTA: 2.15 z-score
GACGATTTCACTCTCGAGACGTGCTAG: 1.96 z-score
CCGTGTTTCTCAAATGTTTTGGTGCTA: 1.25 z-score
GACGGACTCGGGTATCGGGACGTGCTA: 0.103 z-score
TCAAACCTGGGTCTCTGACTGTGCTAG: -0.58 z-score
TCACTGCTCCTTCTGACACTGTGCTAG: 0.0891 z-score
TTAGAACTGAGTCTCTATTAGTGCTAG: 0.0809 z-score

Study 2 — mode: inhibitor; concentration: 20 µM; measurement: inhibition
Target: Replicase polyprotein 1ab, nsp13 helicase (rep, Severe acute respiratory syndrome coronavirus 2, UniProt P0DTD1)
CCOCc1nc2c(N)nc3ccccc3c2n1CC(C)(C)O: 5.74%
CCOc1cc([C@@H](CS(C)(=O)=O)N2C(=O)c3cccc(NC(C)=O)c3C2=O)ccc1OC: 8.65%
CCOC(=O)c1c(C)[nH]c2ccc3c(c12)CN1CCc2cc(OC)ccc2C1O3 (stereo not drawn): 15.1%
CCOc1ccc(NC(=S)N2CCC(C(O)(c3ccccc3)c3ccccc3)CC2)cc1: 9.64%
CNC(=O)c1c(C)oc2cc(Oc3ncnc4cc(OC)c(OC)cc34)ccc12: 1.57%
CNCCC=C1c2ccccc2C=Cc2ccccc21: 0.03%
CCCCCCCCCCCCCCCC[N+](C)(C)C: 29%
CN(C)C(=O)Oc1cccc([N+](C)(C)C)c1: 3.72%
Cc1cc2nc3c(=O)[nH]c(=O)nc-3n(C[C@H](O)[C@H](O)[C@H](O)CO)c2cc1C: 12.4%
O=C1NC(c2cccc([N+](=O)[O-])c2)=CCN1c1ccccc1O: -0.2%
CC(C)c1ccc(NC(=O)Cn2cnc3c2c(=O)n(C)c(=O)n3C)cc1: 5.47%
Cc1ccc2c(c1)c1c3n2CCNC3CCC1 (stereo not drawn): 5.12%
O=C(Nc1cnccc1Cl)N1CCN(Cc2ccc3c(c2)OC(F)(F)O3)CC1: 0.49%
O=C(NCCNCC(O)COc1ccc(O)cc1)N1CCOCC1 (stereo not drawn): 0.22%
O=c1[nH]c2ccccc2n1C1CCN(CCOc2ccccc2)CC1: -5.01%
N[C@@H](CCNCc1ccc(Cl)cc1)C(=O)N1CCCCC1: -10.1%
Nc1nc(Nc2ccc3c(c2)CC[C@@H](N2CCCC2)CC3)nn1-c1cc2c(nn1)-c1ccccc1CCC2: 79.8%
O=S(=O)(c1ccccc1F)N1CCOc2c(N3CCNCC3)cccc21: 41.8%
CN1CCN(c2ccc3[nH]c(-c4ccc5[nH]c(-c6ccc(O)cc6)nc5c4)nc3c2)CC1: 60.1%
NS(=O)(=O)Nc1ncnc(OCCOc2ncc(Br)cn2)c1-c1ccc(Br)cc1: -1.59%
O=C(Nc1ccc(-c2ccncc2)cc1)N[C@H](CO)c1ccccc1: -3.18%
Nc1ncc(Cc2ccc(Br)cc2)s1: 2.64%
CC(C)(C)N1CCC(c2ccccc2)(c2ccccc2)CC1: -6.35%
O=c1[nH]c2cc(C(F)(F)F)c(N3CCOCC3)cc2n(CP(=O)(O)O)c1=O: -2.88%
CCCn1c(=O)c2[nH]cnc2n(-c2ccc(Cl)cc2)c1=O: 5.12%

Study 3 — method: protein binding microarray; form: double-stranded DNA, one strand shown; matrix: in vitro; concentration: not given; baseline: not given; direction: higher = stronger binding; measurement: E-score
Target: Histone acetyltransferase KAT6A, both winged helices, GST fusion (KAT6A, Homo sapiens, UniProt Q92794, residues 1-181)
Setting: 8-mer, flanks averaged, mean of 2 arrays, mostly near background
Construct (chain): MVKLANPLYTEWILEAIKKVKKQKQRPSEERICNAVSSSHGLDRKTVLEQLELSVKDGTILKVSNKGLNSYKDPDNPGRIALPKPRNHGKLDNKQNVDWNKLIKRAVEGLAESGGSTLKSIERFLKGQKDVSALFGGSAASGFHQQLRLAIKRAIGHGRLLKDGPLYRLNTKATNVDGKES
GAGCGGGC: 0.289
CGAGAAAG: 0.0079
CACACTTA: -0.197
CAGCGTCC: 0.127
ATCAGGGG: -0.211
CAGTGTTA: -0.102
GTAATGAC: 0.0141
CATACGCC: 0.155

Study 4 — method: RNA Bind-n-Seq; form: RNA; matrix: in vitro; concentration: 365 nM; baseline: no-protein control; direction: higher = stronger binding; measurement: RBNS enrichment (R)
Target: RNA binding protein fox-1 homolog 2, RRM domain, GST-SBP tag (RBFOX2, Homo sapiens, UniProt O43251-10, residues 100-194)
Setting: natural RNA segment, single round, ends assumed
Shared flanks, not repeated: GGGAGUUCUACAGUCCGACGAUC … UGGAAUUCUCGGGUGCCAA
Residues (chain): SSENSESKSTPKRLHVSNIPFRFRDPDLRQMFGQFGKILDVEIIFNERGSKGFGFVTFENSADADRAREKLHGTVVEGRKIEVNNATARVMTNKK
CGAUCAUCAAGAAAUACUUUCGAAAUUUCAUUUUCCUUCAGAAUAUCUUAAGAGUGCUAAAUUUUUAACUGCCUUUUUGUCGAGUCAAACUGUGGGAUUCUGAUUUGUAU: 0.477
CGGCCCGAGAUUAGGGAGGAUUGACUGUGUCAGGGAUGGCGGGUGGCCUCUCUCGCUGCCAGGGCCCUUGUCAGAGCAGCCAGGCUGGACAGACGGCCUCCCUCCUCUCC: 0.272
AUCAGUGGUGGGUUUUCAAAAUGUACUUGUUCUAAUAAGUUGUACAAUGAACUAAAUCAGUGGCAUUCUCUAGAUAAUGUGGGGGAAGGUUAGAAUAUUUUCUGGCCUUC: 0.451
UCUGUUAAAUCCUGCCCUCCUUGGUGCUAGAUCCAGUUGUGCCUCAGGGCAGAGGAAACAAAACACAGCUAUCCUGUUGGCCUGUGUUGUGGUUUUGAAGUUUGUACUUU: 0.398
AUUCUCACUCCAUGACCUGAUUUUUUUUGUUGUUGUUUUUUUGUUUUGUAAUUUUCAAUUCUAUUGUAAAAGAAACUUAAGUCUCCAACUUGCUGUUUCCAAAAAGAAGG: 0.675
UUAAUCACACUAUAGAGGCAUAAGUGGUAUCAGUUUUCAUUUUUCUAAUUGUUUAAACUGUGUUUUAUACCAGUGUUUGCAAGUAAUUGGGUGUUAGCUUGAGAUGGUUA: 0.374
AAUAAGUUAAUAUUAAGCAAGGUGCCGGUUGUACAAUCUCUGAUCAGUGUCUUUUCAGCACUUUGAGCAUUUACUUGGCUCAUUUAGUCUUCCUUUUGUAGCGCAUGGUU: 16.7
GCAAUCAAGGGCCCGUUUGGAGAAGCAGAAAUGAUUCCCUCCAGUGCCCUGUCUACCUUCCCCAGGCAAGAAGAGCCAGGAGGGCACAGGGCUUGCACGUCACUCUGGUC: 1

Single results of other studies — cell line: HEK-293T; effect on: pseudovirus infection; organism: VSV pseudotyped with SARS-CoV-2 spike; concentration: 10 µM; time: 16 h; baseline: vehicle-treated
CC(=O)c1c(C)c2cnc(Nc3ccc(N4CCNCC4)cn3)nc2n(C2CCCC2)c1=O
GFP-positive cells: 96.2%

Cc1cccc(C)c1NC(=O)C1CCCCN1C (stereo not drawn)
GFP-positive cells (FDA-approved drug library screen): 70.3%
